Measured values gathered from unrelated publications.
Every numbered part comes from another study and shows a few of its results, in no order.

Series 1 — technique: protein-binding microarray; molecule type: double-stranded DNA, one strand shown; medium: in vitro; concentration: not given; reading: higher = stronger binding
Target: Max-binding protein MNT, bHLH-zipper, MAX partner unstated (MNT, Homo sapiens, UniProt Q99583, residues 220-300)
Setting: k-mer, scored over probes, only values ≥0.25
Construct (chain): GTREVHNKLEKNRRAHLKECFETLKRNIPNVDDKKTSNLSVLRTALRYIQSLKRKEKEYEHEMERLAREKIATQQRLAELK
Oligonucleotide	E-score
CACGCCTG	0.369
GCGCCACC	0.255
ACATGCTG	0.431
CGGCATGC	0.388
ACGTGCAA	0.431

Series 2 — technique: protein binding microarray; molecule type: double-stranded DNA, one strand shown; medium: in vitro; concentration: not given; baseline: not given; reading: higher = stronger binding
Target: Histone acetyltransferase KAT6A, winged helix 1, GST fusion (KAT6A, Homo sapiens, UniProt Q92794, residues 1-85)
Setting: 8-mer, flanks averaged, mean of 2 arrays, mostly near background
Construct (chain): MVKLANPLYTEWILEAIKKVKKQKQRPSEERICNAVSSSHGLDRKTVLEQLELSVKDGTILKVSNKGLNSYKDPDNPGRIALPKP
Oligonucleotide	E-score
AGGGTGTA	-0.208
GATGCCAA	-0.239
ATAGGCCC	0.0611
ATATCAAT	-0.136
CCTGGTAA	-0.147
CCTTCATA	-0.0232
AGCTAAAT	-0.162
GAGGCCTC	-0.0967
CAAAAAGA	-0.209

Series 3 — technique: universal PBM; molecule type: double-stranded DNA, one strand shown; medium: in vitro; concentration: 600 nM; reading: higher = stronger binding
Target: Sal-like protein 4, full length isoform A (SALL4, Homo sapiens, UniProt Q9UJQ4, residues 1-1053)
Chain of UniProt Q9UJQ4 (whole entry, looked up): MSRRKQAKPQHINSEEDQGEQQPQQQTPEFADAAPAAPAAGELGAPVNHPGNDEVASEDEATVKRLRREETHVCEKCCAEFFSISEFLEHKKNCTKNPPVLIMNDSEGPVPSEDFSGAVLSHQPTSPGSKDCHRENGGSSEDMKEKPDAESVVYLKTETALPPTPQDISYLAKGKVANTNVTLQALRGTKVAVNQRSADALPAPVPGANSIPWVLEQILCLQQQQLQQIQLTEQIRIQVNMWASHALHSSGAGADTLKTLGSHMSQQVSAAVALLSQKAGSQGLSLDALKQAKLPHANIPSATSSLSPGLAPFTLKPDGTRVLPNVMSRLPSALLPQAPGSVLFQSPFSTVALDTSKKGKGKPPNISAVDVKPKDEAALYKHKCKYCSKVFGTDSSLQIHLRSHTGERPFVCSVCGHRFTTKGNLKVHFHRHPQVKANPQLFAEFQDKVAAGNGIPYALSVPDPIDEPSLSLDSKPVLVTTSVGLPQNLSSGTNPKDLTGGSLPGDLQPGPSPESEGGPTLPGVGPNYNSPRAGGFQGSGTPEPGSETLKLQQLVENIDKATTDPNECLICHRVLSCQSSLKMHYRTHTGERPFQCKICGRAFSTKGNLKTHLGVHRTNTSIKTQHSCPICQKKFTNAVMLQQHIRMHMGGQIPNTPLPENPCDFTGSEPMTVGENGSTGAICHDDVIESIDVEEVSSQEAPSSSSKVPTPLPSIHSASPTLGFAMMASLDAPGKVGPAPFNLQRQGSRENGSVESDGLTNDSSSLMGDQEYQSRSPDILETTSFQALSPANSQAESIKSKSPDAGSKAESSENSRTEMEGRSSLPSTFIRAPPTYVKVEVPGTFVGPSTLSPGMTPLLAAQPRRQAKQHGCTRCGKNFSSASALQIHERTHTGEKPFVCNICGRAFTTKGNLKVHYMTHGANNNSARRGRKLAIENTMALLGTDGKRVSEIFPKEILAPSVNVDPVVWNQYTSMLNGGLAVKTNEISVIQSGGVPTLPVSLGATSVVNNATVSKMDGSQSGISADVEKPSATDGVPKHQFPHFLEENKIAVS
Setting: 8-mer, flanks averaged, mean of replicates
Oligonucleotide	E-score
GCCCCCGA	-0.266
AGCGCGCC	-0.34
GAAACACA	0.205
ACGGTTCA	-0.159
ATTGTTCA	0.213
ATGAAATC	0.297
AGACTGAG	-0.11

Further values, each from its own experiment
Molecule	target	test	test system	conditions	how to read	quantity	value
PhoQ, residues 284 288 289 292 302 303 NLMGRA	PhoP, residues 12 14 15 18 19 SFCSL (Escherichia coli, UniProt P23836)	Sort-seq, measured: YFP reporter	E. coli	PhoQ-PhoP variant library, together with: 10 µM Mg2+	baseline: high Mg2+ state, higher = stronger signaling	fold induction	22.4

Excerpt of the above (series 2):
Oligonucleotide	E-score
AGGGTGTA	-0.208
ATAGGCCC	0.0611
